{"data": "Measured values from different studies", "note": "Parts stem from different laboratories: compare values within a part only. Values joined by “and” are separate records of one study, mostly repeats; a detail may differ.", "sequence of UniProt P42681 (whole entry, looked up)": "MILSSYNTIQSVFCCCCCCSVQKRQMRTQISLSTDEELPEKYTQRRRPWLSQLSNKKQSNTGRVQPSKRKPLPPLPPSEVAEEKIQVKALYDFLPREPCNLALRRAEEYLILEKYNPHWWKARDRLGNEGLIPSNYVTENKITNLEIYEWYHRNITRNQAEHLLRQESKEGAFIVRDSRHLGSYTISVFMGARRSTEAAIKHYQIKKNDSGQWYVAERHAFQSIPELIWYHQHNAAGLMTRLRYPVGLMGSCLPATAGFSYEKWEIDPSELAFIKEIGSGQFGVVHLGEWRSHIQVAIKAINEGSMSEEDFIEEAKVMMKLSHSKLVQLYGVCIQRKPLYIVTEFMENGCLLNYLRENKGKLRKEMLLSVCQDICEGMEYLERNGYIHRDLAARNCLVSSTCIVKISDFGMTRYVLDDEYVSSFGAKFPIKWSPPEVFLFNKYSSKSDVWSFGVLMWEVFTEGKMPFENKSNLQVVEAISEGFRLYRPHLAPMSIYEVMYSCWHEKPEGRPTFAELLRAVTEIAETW", "sequence of UniProt P06213 (whole entry, looked up)": "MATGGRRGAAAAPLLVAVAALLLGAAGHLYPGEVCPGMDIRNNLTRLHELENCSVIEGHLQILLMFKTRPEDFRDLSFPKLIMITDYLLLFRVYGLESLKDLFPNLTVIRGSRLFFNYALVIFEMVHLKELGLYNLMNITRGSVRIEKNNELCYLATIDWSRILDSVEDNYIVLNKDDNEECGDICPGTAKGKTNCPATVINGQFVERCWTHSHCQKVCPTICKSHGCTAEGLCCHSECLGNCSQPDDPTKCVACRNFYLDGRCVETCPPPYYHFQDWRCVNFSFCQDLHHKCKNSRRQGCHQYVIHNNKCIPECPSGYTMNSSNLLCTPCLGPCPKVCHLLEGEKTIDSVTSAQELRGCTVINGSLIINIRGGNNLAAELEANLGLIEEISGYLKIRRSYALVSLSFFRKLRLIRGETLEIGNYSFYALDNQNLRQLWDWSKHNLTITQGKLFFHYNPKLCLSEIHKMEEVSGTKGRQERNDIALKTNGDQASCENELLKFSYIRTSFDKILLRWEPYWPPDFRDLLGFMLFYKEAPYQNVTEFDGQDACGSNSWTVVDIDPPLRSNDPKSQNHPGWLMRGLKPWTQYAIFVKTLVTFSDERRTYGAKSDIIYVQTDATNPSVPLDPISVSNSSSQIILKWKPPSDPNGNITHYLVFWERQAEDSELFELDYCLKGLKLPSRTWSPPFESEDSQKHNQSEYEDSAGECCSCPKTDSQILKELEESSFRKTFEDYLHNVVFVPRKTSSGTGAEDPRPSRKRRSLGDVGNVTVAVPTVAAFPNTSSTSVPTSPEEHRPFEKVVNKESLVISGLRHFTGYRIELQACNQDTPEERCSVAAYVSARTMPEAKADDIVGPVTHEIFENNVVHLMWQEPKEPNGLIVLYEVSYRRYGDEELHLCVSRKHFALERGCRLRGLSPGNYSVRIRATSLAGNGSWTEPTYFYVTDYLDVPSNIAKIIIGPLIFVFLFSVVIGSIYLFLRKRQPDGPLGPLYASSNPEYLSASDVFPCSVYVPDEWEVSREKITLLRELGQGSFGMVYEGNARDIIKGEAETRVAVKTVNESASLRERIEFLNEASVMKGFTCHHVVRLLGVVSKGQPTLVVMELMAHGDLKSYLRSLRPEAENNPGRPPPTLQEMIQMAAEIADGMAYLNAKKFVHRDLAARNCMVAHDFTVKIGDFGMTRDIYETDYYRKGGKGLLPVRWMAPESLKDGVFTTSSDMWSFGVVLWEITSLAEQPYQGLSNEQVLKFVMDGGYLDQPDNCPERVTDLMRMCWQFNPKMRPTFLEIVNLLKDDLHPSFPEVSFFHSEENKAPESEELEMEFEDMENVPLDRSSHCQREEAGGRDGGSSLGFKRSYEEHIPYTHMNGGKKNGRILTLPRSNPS", "sequence of UniProt P51451 (whole entry, looked up)": "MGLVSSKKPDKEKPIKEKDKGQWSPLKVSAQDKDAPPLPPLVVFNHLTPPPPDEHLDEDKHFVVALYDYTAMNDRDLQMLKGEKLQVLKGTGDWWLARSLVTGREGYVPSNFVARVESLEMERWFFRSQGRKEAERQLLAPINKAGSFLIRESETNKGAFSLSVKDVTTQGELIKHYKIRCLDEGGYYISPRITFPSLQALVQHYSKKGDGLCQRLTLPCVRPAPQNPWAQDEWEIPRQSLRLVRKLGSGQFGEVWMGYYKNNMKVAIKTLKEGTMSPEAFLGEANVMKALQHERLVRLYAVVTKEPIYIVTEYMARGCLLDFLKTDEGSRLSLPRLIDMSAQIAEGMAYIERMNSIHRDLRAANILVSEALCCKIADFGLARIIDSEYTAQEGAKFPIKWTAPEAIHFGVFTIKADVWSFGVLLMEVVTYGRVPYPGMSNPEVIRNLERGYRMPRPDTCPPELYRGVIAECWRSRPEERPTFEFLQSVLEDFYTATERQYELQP", "sequence of UniProt Q8TDR2 (whole entry, looked up)": "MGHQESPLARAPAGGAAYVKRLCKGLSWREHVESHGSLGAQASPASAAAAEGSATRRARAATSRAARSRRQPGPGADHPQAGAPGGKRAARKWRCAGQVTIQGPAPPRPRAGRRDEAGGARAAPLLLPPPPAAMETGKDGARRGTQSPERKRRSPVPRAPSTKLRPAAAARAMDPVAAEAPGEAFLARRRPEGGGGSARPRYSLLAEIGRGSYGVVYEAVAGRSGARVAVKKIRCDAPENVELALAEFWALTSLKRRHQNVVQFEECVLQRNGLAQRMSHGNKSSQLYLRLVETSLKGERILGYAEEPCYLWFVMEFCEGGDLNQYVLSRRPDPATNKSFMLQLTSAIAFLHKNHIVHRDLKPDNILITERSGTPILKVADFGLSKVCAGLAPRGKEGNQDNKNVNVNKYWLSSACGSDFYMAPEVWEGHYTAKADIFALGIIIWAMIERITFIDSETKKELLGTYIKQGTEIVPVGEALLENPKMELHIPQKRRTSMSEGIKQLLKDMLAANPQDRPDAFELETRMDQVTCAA", "sequence of UniProt P30530 (whole entry, looked up)": "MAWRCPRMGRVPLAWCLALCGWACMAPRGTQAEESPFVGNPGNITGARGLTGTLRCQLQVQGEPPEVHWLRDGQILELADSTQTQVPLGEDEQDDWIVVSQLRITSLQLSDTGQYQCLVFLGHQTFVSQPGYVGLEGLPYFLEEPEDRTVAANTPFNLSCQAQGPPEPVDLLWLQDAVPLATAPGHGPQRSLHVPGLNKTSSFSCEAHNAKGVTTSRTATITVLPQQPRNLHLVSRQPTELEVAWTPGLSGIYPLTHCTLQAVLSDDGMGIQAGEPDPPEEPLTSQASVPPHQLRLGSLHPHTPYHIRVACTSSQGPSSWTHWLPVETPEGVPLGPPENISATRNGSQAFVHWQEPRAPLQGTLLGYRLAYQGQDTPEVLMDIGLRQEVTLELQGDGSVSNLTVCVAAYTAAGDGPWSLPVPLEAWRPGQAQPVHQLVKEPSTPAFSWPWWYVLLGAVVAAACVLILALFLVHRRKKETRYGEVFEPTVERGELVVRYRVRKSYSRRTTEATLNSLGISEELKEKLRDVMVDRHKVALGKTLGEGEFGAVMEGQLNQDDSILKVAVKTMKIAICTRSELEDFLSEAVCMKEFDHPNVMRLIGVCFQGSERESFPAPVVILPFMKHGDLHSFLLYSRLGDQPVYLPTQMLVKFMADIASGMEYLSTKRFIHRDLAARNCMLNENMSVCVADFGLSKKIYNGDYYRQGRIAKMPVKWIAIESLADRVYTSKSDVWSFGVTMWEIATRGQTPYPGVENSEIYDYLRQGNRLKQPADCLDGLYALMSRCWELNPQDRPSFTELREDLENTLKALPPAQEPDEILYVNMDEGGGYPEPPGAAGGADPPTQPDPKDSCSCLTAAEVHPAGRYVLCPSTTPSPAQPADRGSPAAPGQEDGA"}
{"data": "Sample 1", "target": "Homeodomain-interacting protein kinase 4 (HIPK4, Homo sapiens, UniProt Q8NE63)", "observed": "enzyme activity", "action": "inhibitor", "concentration": "0.5 µM", "relative to": "control", "sequence of UniProt Q8NE63 (whole entry, looked up)": "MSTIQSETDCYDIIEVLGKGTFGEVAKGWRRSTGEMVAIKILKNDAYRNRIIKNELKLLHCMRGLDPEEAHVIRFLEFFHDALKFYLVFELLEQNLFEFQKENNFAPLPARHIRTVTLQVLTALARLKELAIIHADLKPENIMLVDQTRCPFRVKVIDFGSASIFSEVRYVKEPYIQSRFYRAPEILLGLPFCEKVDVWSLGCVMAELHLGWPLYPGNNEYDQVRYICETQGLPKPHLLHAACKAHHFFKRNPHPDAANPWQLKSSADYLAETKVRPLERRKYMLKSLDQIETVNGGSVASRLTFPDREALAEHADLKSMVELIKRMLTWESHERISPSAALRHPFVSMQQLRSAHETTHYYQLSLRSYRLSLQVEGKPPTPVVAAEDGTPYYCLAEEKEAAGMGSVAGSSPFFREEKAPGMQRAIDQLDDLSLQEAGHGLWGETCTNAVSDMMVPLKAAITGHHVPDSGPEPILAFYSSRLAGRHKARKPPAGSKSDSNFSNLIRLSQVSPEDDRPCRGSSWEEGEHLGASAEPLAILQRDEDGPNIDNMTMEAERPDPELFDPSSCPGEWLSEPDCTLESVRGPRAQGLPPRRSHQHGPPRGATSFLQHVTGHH"}
{"SMILES": "COc1cc2ncnc(Nc3ccc(F)c(Cl)c3)c2cc1OCCCN1CCOCC1", "remaining activity [%]": 90.4}
{"SMILES": "O=C1NC(=O)C(c2cn(CCCO)c3ncccc23)=C1c1cnccn1", "remaining activity [%]": 104}
{"SMILES": "COc1cc2nccc(Oc3ccc(NC(=S)NC(=O)c4ccccc4C)cc3)c2cc1OC", "remaining activity [%]": 86}
{"SMILES": "O=C(O)c1ccc2c3c1cccc3c(=O)n1c3ccccc3nc21", "remaining activity [%]": 86.9}
{"SMILES": "Nc1ncnc2n[nH]c(Nc3ccc(F)cc3)c12", "remaining activity [%]": 98.5}
{"SMILES": "Nc1[nH]nc2nc3ccccc3nc12", "remaining activity [%]": 95.8}
{"SMILES": "O=C(CCCc1ccc(-c2ccccc2F)cc1)Nc1ccc(O)cc1", "remaining activity [%]": 105}
{"SMILES": "O=c1c2ccccc2[nH]c(=S)n1CCN1CCC(=C(c2ccc(F)cc2)c2ccc(F)cc2)CC1", "remaining activity [%]": 98.4}
{"SMILES": "COc1ccc(OC)c2c(=S)c3ccccc3[nH]c12", "remaining activity [%]": 97.3}
{"SMILES": "Cn1sc(=O)n(Cc2ccccc2)c1=O", "remaining activity [%]": 98.2}
{"SMILES": "C#Cc1cccc(Nc2ncnc3cc(OCCOC)c(OCCOC)cc23)c1", "remaining activity [%]": 102}
{"SMILES": "O=C(Nc1cccc(Nc2cc(Nc3cccc(C(F)(F)F)c3)ncn2)c1)C1CC1", "remaining activity [%]": 101}
{"SMILES": "Cc1ccc(Nc2nccc(N(C)c3ccc4c(C)n(C)nc4c3)n2)cc1S(N)(=O)=O", "remaining activity [%]": 109}
{"SMILES": "CC(C)[C@H](CO)Nc1nc(Nc2cc(N)cc(Cl)c2)c2ncn(C(C)C)c2n1", "remaining activity [%]": 96.4}
{"SMILES": "Cc1cccc(-c2[nH]c(C(C)(C)C)nc2-c2ccc3c(c2)OCO3)n1", "remaining activity [%]": 107}
{"data": "Sample 2", "target": "Calcium/calmodulin-dependent protein kinase type II subunit alpha (CAMK2A, Homo sapiens, UniProt Q9UQM7)", "observed": "enzyme activity", "action": "inhibitor", "concentration": "10 µM", "sequence of UniProt Q9UQM7 (whole entry, looked up)": "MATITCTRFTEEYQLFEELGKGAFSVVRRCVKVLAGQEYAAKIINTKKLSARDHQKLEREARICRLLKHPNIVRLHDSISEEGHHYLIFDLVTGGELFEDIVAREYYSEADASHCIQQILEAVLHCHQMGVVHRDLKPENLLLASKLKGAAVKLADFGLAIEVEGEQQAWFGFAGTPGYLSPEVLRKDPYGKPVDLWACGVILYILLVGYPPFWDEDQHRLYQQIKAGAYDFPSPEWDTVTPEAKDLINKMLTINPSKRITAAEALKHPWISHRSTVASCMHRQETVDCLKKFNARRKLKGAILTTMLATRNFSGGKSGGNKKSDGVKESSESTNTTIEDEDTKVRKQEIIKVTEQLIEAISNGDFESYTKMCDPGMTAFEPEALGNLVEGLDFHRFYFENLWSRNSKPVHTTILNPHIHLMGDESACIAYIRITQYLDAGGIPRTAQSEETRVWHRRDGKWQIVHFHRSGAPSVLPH"}
{"Structure (SMILES)": "O=c1ccc2ccc(OCCCCN3CCN(c4cccc5sccc45)CC3)cc2[nH]1", "inhibition [%]": -16}
{"Structure (SMILES)": "Oc1cc(O)c2c(c1)OC(c1ccc(O)c(O)c1)C(O)C2O (centres unmarked)", "inhibition [%]": 18}
{"Structure (SMILES)": "CC(C)=C[C@@H]1CO[C@]23C[C@]4(CO2)[C@H](CC[C@@H]2[C@@]5(C)CC[C@H](O[C@@H]6OC[C@H](O)[C@H](O[C@@H]7O[C@H](COS(=O)(=O)O)[C@@H](O)[C@H](O)[C@H]7O)[C@H]6O[C@@H]6O[C@@H](CO)[C@H](O)[C@H]6O)C(C)(C)[C@@H]5CC[C@]24C)[C@H]3[C@@]1(C)O", "inhibition [%]": -11}
{"Structure (SMILES)": "CC(CO)C(=O)O (centres unmarked)", "inhibition [%]": 28}
{"Structure (SMILES)": "COc1ccc2ccc(=O)oc2c1C[C@@H]1OC1(C)C", "inhibition [%]": 49}
{"Structure (SMILES)": "CC1(C)[C@@H](O[C@@H]2O[C@H](C(=O)O)[C@@H](O)[C@H](O)[C@H]2O)CC[C@]2(C)[C@H]3C(=O)C=C4[C@@H]5C[C@@](C)(C(=O)O)CC[C@]5(C)CC[C@@]4(C)[C@]3(C)CC[C@@H]12", "inhibition [%]": -25}
{"Structure (SMILES)": "N[C@@H]1c2cccnc2[C@H](OC(=O)N2CCC(n3c(=O)[nH]c4ncccc43)CC2)CC[C@H]1c1cccc(F)c1F", "inhibition [%]": 1}
{"data": "Sample 3", "Compound": "O=C(NCCCC1CCCCC1)c1ccc(CNC(=O)c2cnn(-c3ccccc3)c2C(F)(F)F)cc1", "technique": "competition with immobilised ligand", "concentration": "0.1 µM"}
{"target": "STK35 (Homo sapiens, UniProt Q8TDR2)", "observed": "cell-free assay", "remaining binding [%]": 100}
{"target": "TXK (Homo sapiens, UniProt P42681)", "observed": "binding", "remaining binding [%]": 100}
{"target": "BLK (Homo sapiens, UniProt P51451)", "observed": "cell-free assay", "remaining binding [%]": 100}
{"target": "Aurora kinase A (AURKA, Homo sapiens, UniProt O14965)", "observed": "cell-free assay", "remaining binding [%]": 100}
{"target": "AXL (Homo sapiens, UniProt P30530)", "observed": "cell-free assay", "remaining binding [%]": 95}
{"target": "Insulin receptor (INSR, Homo sapiens, UniProt P06213)", "observed": "cell-free assay", "remaining binding [%]": 100}
{"data": "Sample 4", "cell line": "mouse MPNST tumor cells", "technique": "high-content nuclear imaging", "item": "cell number", "concentration": "10 µM", "time": "12 h", "setting": "mean of 2 replicates", "relative to": "plate mean", "direction": "higher = more cells"}
{"SMILES": "Cc1cccc(C)c1NC(=O)C1CCCCN1C (centres unmarked)", "nuclei count": "0.379 z-score"}
{"SMILES": "COc1ccc(C(=O)CC(=O)c2ccc(C(C)(C)C)cc2)cc1", "nuclei count": "1.18 z-score"}
{"SMILES": "CC(C)(Oc1ccc(Cl)cc1)C(=O)O", "nuclei count": "2.04 z-score and 1.57 z-score"}
{"SMILES": "COc1cc(N2CCN(C(C)=O)CC2)ccc1Nc1ncc(Cl)c(Nc2ccc(N3CCN(C(C)=O)CC3)cc2OC)n1", "nuclei count": "-1.35 z-score"}
{"SMILES": "CNCC[C@@H](Oc1ccccc1C)c1ccccc1", "nuclei count": "1.14 z-score"}
{"SMILES": "C[C@](N)(Cc1ccc(O)c(O)c1)C(=O)O", "nuclei count": "0.177 z-score and 0.664 z-score"}
{"SMILES": "CC(C)(CN)c1nc(-c2ccc(Cl)c(O)c2)c(-c2ccncc2)[nH]1", "nuclei count": "-0.907 z-score"}
{"note": "For quick reference, copied from above (sample 1):"}
{"SMILES": "Nc1[nH]nc2nc3ccccc3nc12", "remaining activity [%]": 95.8}
{"SMILES": "O=C(CCCc1ccc(-c2ccccc2F)cc1)Nc1ccc(O)cc1", "remaining activity [%]": 105}
{"SMILES": "O=c1c2ccccc2[nH]c(=S)n1CCN1CCC(=C(c2ccc(F)cc2)c2ccc(F)cc2)CC1", "remaining activity [%]": 98.4}
